Measurements pooled from the literature.
A part holds a random share of what one study measured.

Sample 1
Target: Histone acetyltransferase KAT6A, both winged helices, GST fusion (KAT6A, Homo sapiens, UniProt Q92794, residues 1-181)
Technique: protein binding microarray
Molecule type: double-stranded DNA, one strand shown
Medium: in vitro
Tested at: not given
Notes: 8-mer, flanks averaged, mean of 2 arrays, mostly near background
Relative to: not given
Reading: higher = stronger binding
Measurement: E-score
Construct (chain): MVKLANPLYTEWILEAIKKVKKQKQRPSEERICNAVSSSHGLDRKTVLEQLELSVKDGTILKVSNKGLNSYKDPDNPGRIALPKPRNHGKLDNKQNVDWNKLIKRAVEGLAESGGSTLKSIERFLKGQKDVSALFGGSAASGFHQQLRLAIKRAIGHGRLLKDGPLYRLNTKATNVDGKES
GTACGTGA: -0.0448
ATATTCAG: 0.0563
GTGGTACA: -0.11
CCAACTAG: -0.0808
CAGACCGG: 0.227
CGCGATGC: 0.284
AACAATTC: -0.039
GCCTCGTA: -0.0464
GCTCAAAA: 0.0486
AAGTCTCA: -0.221
TATTCACA: 0.0382
AAGCGGGA: 0.217
AACTATAA: -0.0795
GACCGTGC: 0.171
CTGTCGGC: 0.258
CCGCGAGC: 0.339
CACGACAC: -0.024
GACCGTCA: 0.0747
ACATATAA: -0.105
ACAATGTG: -0.155
ATCCTCGC: 0.00443
ACCATTTC: -0.119

Sample 2
Target: Centromere-binding protein 1, full length, N-terminal tag (CBF1, Saccharomyces cerevisiae, UniProt P17106, residues 1-351)
Chain of UniProt P17106 (whole entry, looked up): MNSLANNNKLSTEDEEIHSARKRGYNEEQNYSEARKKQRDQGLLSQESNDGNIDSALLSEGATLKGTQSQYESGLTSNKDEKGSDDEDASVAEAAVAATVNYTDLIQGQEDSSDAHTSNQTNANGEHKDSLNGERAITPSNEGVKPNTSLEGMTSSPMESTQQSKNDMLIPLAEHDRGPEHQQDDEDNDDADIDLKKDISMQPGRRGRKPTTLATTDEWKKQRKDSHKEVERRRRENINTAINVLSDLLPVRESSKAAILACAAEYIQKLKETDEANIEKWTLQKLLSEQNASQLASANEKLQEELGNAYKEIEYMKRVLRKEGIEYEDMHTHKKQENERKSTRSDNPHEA
Technique: protein-binding microarray
Molecule type: double-stranded DNA, one strand shown
Medium: in vitro
Tested at: 0.8 µM
Notes: whole 60-bp probe, no competitor
Reading: higher = stronger binding
Measurement: fluorescence intensity
GAAAAGGGAACGTGTCACGTGCTTCGTCGTTCATAGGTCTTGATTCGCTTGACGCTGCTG: 18200 a.u.
CTACGCGTGATTCCAAAGGTGATGAAGGGTACATTCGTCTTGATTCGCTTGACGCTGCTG: 620 a.u.
TGTACGAAGCTATTTTTGGTGGTTATAGTAGTTAGGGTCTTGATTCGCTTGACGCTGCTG: 505 a.u.
CCTAACTACTATAAACACATGGAATAGCTTCGTACAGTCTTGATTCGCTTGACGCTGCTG: 570 a.u.
GAAAAATGTATCATGCACGTATGACAGAGAGAATAGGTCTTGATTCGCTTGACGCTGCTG: 682 a.u.
CTAAGATATTGAGGTGTCATCAGATAGGACAATTTCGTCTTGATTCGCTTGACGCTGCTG: 567 a.u.
GAATGGCGCGCACGTGACTACAACTGTGGCTGGTAGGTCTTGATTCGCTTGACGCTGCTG: 20600 a.u.
GAATATTCCCATAATAACGTGCAAAAGTCCCTATAGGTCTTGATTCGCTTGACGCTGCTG: 636 a.u.
CTACCCACATACAATCACCTGTAGAAAGAAACATTCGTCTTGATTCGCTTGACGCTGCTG: 636 a.u.
CTAATTTTTTCAAATCATATGAAACAAGTATTATTCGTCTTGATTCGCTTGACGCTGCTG: 601 a.u.
GAAAAAGTTGAGCACCACGATTACGGAATAACATAGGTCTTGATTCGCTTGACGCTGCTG: 514 a.u.
GAAGGATAGTGGCATCACGAGAAGCTGTTGTTCTAGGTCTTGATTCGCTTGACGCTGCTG: 648 a.u.
CTAATACAAATGAACCACGCAATCCTTTACTACTTCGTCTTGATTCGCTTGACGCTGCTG: 511 a.u.
GAACTTATCGCAAAGCGGGTGAGATCAAATGCTTAGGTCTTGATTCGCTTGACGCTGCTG: 478 a.u.
CTACGATAGCTTTATTGCGTGATCTTCCCTTACTTCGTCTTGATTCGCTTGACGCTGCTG: 572 a.u.
GAATTATCCAACTATGGTGACGTAAGAATTTACTAGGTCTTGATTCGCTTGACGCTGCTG: 565 a.u.

Sample 3
Target: Fragile X messenger ribonucleoprotein 1, C-terminal low-complexity region (Fmr1, Mus musculus, UniProt P35922)
Technique: RNA Bind-n-Seq
Molecule type: RNA
Medium: in vitro
Tested at: 200 nM
Notes: whole 134-nt RNA, ends assumed
Added: 150 mM LiCl
Relative to: input library
Reading: higher = stronger binding
Measurement: log2 enrichment
Library: 7-deaza-guanosine replaces G
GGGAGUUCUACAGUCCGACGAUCCCUGUGCUACACAUCGUAUGUACCGAAUCGGGUUUUUUUGGGUUUUUUUGGUUUUUUUGGAAAGUAUUAUGUUACGCCGUUCGGAUCUGCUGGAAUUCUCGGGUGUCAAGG: 0.0585
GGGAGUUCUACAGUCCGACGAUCCCUGUGCUACACAUCGUAUGUACCGAAUCGGGGUUUUUUGGGGUUUUUUGGUUUUUUGGGAAAGUAUUAUGUUACGCCGUUCGGAUCUGCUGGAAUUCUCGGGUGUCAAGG: -0.648
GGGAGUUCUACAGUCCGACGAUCUGUGCUACACAUCGUAUGUACCGAAUCGGGGCCCCCCCGGGGCCCCCCCGGGCCCCCCCGGGGAAAGUAUUAUGUUACGCCGUUCGGAUCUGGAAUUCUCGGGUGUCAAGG: -2.06
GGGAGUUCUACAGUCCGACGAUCCACAGACAACACGCACCCACACAGACACAGAGGGAAGGGGUUGGGAUGAAAACAGGGUGCACAGCAGGGCGGGGUAGGACCCCAGCCCCUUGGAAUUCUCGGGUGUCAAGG: 0.174
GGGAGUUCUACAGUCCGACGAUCUUUAGGUGUUAGACGGUACCGACAACCAGUAUUUGGGCCUGCAGAUUGGACAGCCCCAGGAUGAAGAUGAGGAAGCCACAGGUAUUCUUCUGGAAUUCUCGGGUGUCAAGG: -3.36
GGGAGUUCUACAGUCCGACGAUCUGGGAGGUGGAUUUUGUUUAUUUUUUUAGCUCAUUUCCAGGGGUGGGAAUUUUUUUUUAAUACGUGUCAUGAAUAAAGUUGUUUUUGAAAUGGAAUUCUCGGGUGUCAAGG: -0.171
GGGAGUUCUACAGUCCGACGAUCACCAUGCAGGUGGGCAUCUUUGGGAAGUGGGGCAAGGGGGGCAUAGGGAGGGGGGUAACACUUUGGGAACAGGUGGUCCCAGGUCGUUUCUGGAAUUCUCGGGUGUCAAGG: 0.336
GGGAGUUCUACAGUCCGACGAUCCUCAAGUCCUGUGCUACACAUCGUAUGUACCGAAUCGGAGGAAAAAGGAAAGGAAAGUAUUAUGUUACGCCGUUCGGAUCUGCACUUCCAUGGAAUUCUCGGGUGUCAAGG: -0.679
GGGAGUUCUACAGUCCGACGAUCCCUGUGCUACACAUCGUAUGUACCGAAUCGGGGAAAAAAAGGGGUGGGGUUUUUUUGGGGAAAGUAUUAUGUUACGCCGUUCGGAUCUGCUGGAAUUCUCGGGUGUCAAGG: -1.44
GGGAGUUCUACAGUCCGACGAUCUCAAGUCCUGUGCUACACAUCGUAUGUACCGAAUCGGAAAGGAGGUUUUUUUGGAAAGUAUUAUGUUACGCCGUUCGGAUCUGCACUUCCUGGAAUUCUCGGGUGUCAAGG: -0.898
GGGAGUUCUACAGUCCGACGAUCGUCCUGUGCUACACAUCGUAUGUACCGAAUCAAAUUUUUUUAAACCCAAACCCCCAAAAAAGUAUUAUGUUACGCCGUUCGGAUCUGCACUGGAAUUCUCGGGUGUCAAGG: 0.895

Sample 4
Target: RNA binding protein fox-1 homolog 2, RRM domain, GST-SBP tag (RBFOX2, Homo sapiens, UniProt O43251-10, residues 100-194)
Technique: RNA Bind-n-Seq
Molecule type: RNA
Medium: in vitro
Tested at: 365 nM
Notes: natural RNA segment, single round, ends assumed
Relative to: no-protein control
Reading: higher = stronger binding
Measurement: RBNS enrichment (R)
Residues (chain): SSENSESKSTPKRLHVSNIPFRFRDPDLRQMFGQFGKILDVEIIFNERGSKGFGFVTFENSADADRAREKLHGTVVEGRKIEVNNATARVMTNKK
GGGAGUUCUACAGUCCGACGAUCUACCCCACCUUCCCACACUGUGAGCUAAUGAUGUGUGGUUUCUCUGCACAUAAGUAAAUGUCUUCACGUCAGUGCGUCCGUGGAAAUUGUGAUCUGUUGUAAUAUCAGUUUGGAAUUCUCGGGUGCCAA: 0.252
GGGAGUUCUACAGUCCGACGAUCCCCUGCAGGCCGCAUCAUGGUGGUGUCUAUUGCCGGGGUGGCCACAGGCUGGAUCCGAGUGUCCCCUCUGCAGCAGACGGGGACGCCAGGAUGCGGCUUGGGACUCAGACUGGAAUUCUCGGGUGCCAA: 0.211
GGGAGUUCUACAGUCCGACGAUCAUAUUUUUAAUAUUUGGGGCAUGAGUUGUCCCUGUUUGAGAGUUCCCAUUACUAAUGUAGAAAUGUUAAAUGGUAAAACAUAAUUUGCUAAAAUGACCAGUUUUCAGAUUUGGAAUUCUCGGGUGCCAA: 1.34
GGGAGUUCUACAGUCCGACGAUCCUGCAAAGAGAGGCUCACGUGCCUCUCGGGUACAUGGAGAAGUUGCCAAGAGUUCUUUAGGUGCCUCCUGUCUUAUGGCGUUGCAGGCCAGGUUAUGCCUCAUGCUGACUUGGAAUUCUCGGGUGCCAA: 0.214
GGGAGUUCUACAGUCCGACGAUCCACCUCCUGUUUGCCAGGGGGGAAGAACCUAAAGACUUGCUGGGGUAGGAAAUGAGGGCAGACAGGAAGAGAGCAACAUGUCCAGCCCAUAGACUCCACAGAGAAUGGUGUGGAAUUCUCGGGUGCCAA: 6.78
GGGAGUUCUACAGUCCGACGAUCUGGGCUCUCUAGGUGGCCCUGGUCUUGCCCCAUCCAUCCCACCUGCCACUACCUUGGGUGUCCUUACAGCUCUGCCCUGACCCCAGCCCCUGCCCCUGGACACCUGCUGAUGGAAUUCUCGGGUGCCAA: 0.684
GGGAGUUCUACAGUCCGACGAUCCCAAAGAAUGGGGGUGGGAGCGCCAAGGGGCAGAGACUCUCCUUGACCCUCUCCCUAAGGUUGGAUCAGGGAACUGGGUAAGACCUGCAGAAGGUUUCUCUGAGUCACUCUGGAAUUCUCGGGUGCCAA: 0.453
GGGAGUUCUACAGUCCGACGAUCGUACUAAACAGAUGGGGGUUCACUCUAGGUCAUAAAUACAAUUACCUACUAAGUAGCAAGAAUGCCUCAGCAAUCCCCAAGCCUUCCAGUGCCUCUGGGGGCUUCCUGAUUGGAAUUCUCGGGUGCCAA: 0.362
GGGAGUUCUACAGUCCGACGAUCAAUACAAAGCAAAUCCUUCCCCAGCUAUGUGUUUUAGCCUUUGAGUAGGGGAGUUUCGGUGUACACAUUGAAUUUUCCACUUAUGUAAAUAAAACGGAUUUUGAUAAAUCUGGAAUUCUCGGGUGCCAA: 0.582

A few entries again (sample 2):
GAAGGATAGTGGCATCACGAGAAGCTGTTGTTCTAGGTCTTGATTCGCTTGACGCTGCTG: 648 a.u.
CTAATACAAATGAACCACGCAATCCTTTACTACTTCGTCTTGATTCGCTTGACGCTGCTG: 511 a.u.
GAACTTATCGCAAAGCGGGTGAGATCAAATGCTTAGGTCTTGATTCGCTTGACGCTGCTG: 478 a.u.
CTACGATAGCTTTATTGCGTGATCTTCCCTTACTTCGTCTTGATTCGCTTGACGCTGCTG: 572 a.u.
